Values quoted from earlier work that unrelated publications cite.
Compare with care: the assays were run in different laboratories. Numbers after ± are the reported error.
Sequence of UniProt Q8IVH8 (whole entry, looked up): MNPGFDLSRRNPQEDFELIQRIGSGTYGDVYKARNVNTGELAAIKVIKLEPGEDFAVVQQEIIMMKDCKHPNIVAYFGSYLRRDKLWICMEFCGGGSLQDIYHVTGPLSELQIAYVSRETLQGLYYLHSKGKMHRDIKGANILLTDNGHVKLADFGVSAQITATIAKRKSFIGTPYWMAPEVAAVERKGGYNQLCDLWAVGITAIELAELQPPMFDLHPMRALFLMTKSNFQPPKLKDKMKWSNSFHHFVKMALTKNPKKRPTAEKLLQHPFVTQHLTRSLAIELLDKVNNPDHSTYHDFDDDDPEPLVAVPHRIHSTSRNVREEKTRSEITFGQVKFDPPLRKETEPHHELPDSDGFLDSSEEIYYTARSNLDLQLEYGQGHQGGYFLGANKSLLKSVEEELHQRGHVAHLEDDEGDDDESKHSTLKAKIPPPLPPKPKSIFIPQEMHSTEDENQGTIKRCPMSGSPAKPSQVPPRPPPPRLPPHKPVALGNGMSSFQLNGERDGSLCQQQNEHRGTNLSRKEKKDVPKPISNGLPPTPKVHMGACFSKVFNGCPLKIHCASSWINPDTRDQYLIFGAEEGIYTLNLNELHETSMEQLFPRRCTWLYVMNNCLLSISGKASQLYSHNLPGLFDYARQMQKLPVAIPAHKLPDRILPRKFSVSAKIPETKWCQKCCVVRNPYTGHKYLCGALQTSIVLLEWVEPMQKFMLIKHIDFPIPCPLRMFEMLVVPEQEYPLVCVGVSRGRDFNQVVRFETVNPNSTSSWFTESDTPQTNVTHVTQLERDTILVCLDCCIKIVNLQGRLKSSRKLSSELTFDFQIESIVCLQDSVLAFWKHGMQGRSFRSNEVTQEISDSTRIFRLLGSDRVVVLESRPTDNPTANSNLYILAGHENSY

| SMILES | target | test | test system | setting | scale | endpoint | result |
| --- | --- | --- | --- | --- | --- | --- | --- |
| Nc1cc(C(F)(F)F)c(-c2nc(N3CCOCC3)nc(N3CCOCC3)n2)cn1 | MAP4K3 (Homo sapiens, UniProt Q8IVH8) | enzyme activity |  | 10 µM | baseline: untreated | remaining activity | 71% |
| C=CC(=O)N1CCC[C@@H](n2nc(-c3ccc(Oc4ccccc4)cc3)c3c(N)ncnc32)C1 | ABCB1 (human) |  | HEK293/ABCB1 |  |  | IC50 | > 2.5 µM |
| CO[C@H]1/C=C/O[C@@]2(C)Oc3c(C)c(O)c4c(O)c(c(/C=N/N5CCN(C)CC5)c(O)c4c3C2=O)NC(=O)/C(C)=C\C=C\[C@H](C)[C@H](O)[C@@H](C)[C@@H](O)[C@@H](C)[C@H](OC(C)=O)[C@@H]1C | OATP1B1 |  |  |  | literature minimum | IC50 | 0.22 µM |
| C=C(C)[C@@H]1CC[C@]2(C)CC[C@]3(C)[C@H](CC[C@@H]4[C@@]5(C)CC[C@H](O)C(C)(C)[C@@H]5CC[C@]43C)[C@@H]12 | rat CYP2D6 | inhibitor | rat liver microsomes |  |  | IC50 | > 100 µM |
| CNCc1cn(S(=O)(=O)c2cccc(F)c2)c(-c2ccc(F)cc2F)c1OC | MATE2-K | transporter uptake |  |  |  | IC50 | 0.58 µM |
| COc1c(N2C[C@@H]3CCCN[C@@H]3C2)c(F)cc2c(=O)c(C(=O)O)cn(C3CC3)c12 | MATE1 | inhibitor |  |  |  | IC50 | 5 to 12 µM |
| CC(O)c1cc(C(=O)N[C@@H](C)Cn2ccc(-c3ccc(C#N)c(Cl)c3)n2)[nH]n1 (stereo partly shown) | OATP1B3 |  |  |  | literature maximum | IC50 | 39.3 µM |
| OC(Cn1cncn1)(Cn1cncn1)c1ccc(F)cc1F | CYP2B6 | enzyme activity, inhibitor |  |  |  | IC50 | 313 to 361 µM |
| COC[C@H]1C[C@@H](c2ncc(-c3ccc4c(c3)COc3cc5c(ccc6nc([C@@H]7CC[C@H](C)N7C(=O)[C@@H](NC(=O)OC)C(C)C)[nH]c65)cc3-4)[nH]2)N(C(=O)[C@H](NC(=O)OC)c2ccccc2)C1 | OATP1B1 |  |  |  | literature maximum | IC50 | 1.8 µM |
| COc1cc(C2Oc3cc([C@H]4Oc5cc(O)cc(O)c5C(=O)[C@@H]4O)ccc3OC2CO)ccc1O (stereo partly shown) | PXR | reporter gene, cell-based reporter |  |  |  | IC50 | 135 µM |
| CO/N=C(\C(=O)N[C@@H]1C(=O)N2C(C(=O)O)=C(CSc3nc(=O)c(=O)[nH]n3C)CS[C@H]12)c1csc(N)n1 | MRP3 | transport activity, inhibitor |  |  |  | IC50 | 630 µM |
| COc1cc([C@H]2Oc3cc([C@H]4Oc5cc(O)cc(O)c5C(=O)[C@@H]4O)ccc3O[C@@H]2CO)ccc1O | human OATP1B1 and OATP1B3 | inhibitor |  |  |  | IC50 | 2.2 to 9.7 µM |
| CCC(C)n1ncn(-c2ccc(N3CCN(c4ccc(OCC5COC(Cn6cncn6)(c6ccc(Cl)cc6Cl)O5)cc4)CC3)cc2)c1=O (stereo not shown) | OATP1B3 (SLCO1B3) OATP1B3 |  |  | literature geometric mean |  | IC50 | 1.69 µM |
| COC(=O)N[C@H](C(=O)N1CCC[C@H]1c1nc(-c2ccc3c(c2)O[C@@H](c2ccccc2)n2c-3cc3cc(-c4c[nH]c([C@@H]5CCCN5C(=O)[C@@H](NC(=O)OC)C(C)C)n4)ccc32)c[nH]1)C(C)C | CYP2B6 | inhibitor | human liver microsomes |  |  | IC50 | > 100 µM |
| CC(F)(F)c1cc(F)ccc1-c1sc2cc(O)ccc2c1Oc1ccc(/C=C/C(=O)O)cc1 | UGT1A1 | inhibitor |  | unbound |  | IC50 | 0.35 µM |
| CN(C)C/C=C/C(=O)Nc1cc2c(Nc3ccc(F)c(Cl)c3)ncnc2cc1O[C@H]1CCOC1 | ABCB1 |  | A2780T |  |  | IC50 | 2 µM |
| Cc1ccc(C)c(OCCCC(C)(C)C(=O)O)c1 | OATP1B3 (SLCO1B3) OATP1B1 |  |  | literature geometric mean |  | IC50 | 37.6 µM |
| Cc1cccc(-c2[nH]c(CNc3ccccc3F)nc2-c2ccc3ncnn3c2)n1 | MDR1 | transport activity, inhibitor |  |  |  | IC50 | 10 µM |
| C=C[C@@H]1C[C@]1(NC(=O)[C@@H]1C[C@@H]2CN1C(=O)[C@H](C(C)(C)C)NC(=O)O[C@@H]1C[C@H]1CCCCCc1nc3ccc(OC)cc3nc1O2)C(=O)NS(=O)(=O)C1CC1 | OATP1B3 |  |  |  | literature minimum | IC50 | 0.574 µM |
| NS(=O)(=O)C(F)(F)C(F)(F)C(F)(F)C(F)(F)C(F)(F)C(F)(F)C(F)(F)C(F)(F)F | CYP2C19 | inhibitor |  |  |  | IC50 | 64.2 ± 43.4 µM |
| C=C[C@@H]1C[C@]1(NC(=O)[C@@H]1C[C@@H]2CN1C(=O)[C@H](C(C)(C)C)NC(=O)O[C@@H]1C[C@H]1CCCCCc1nc3ccc(OC)cc3nc1O2)C(=O)NS(=O)(=O)C1CC1 | human BSEP | ATP-dependent uptake, inhibitor |  | together with: taurocholic acid |  | IC50 | 0.15 µM |
| N[C@@H]1c2cccnc2[C@H](OC(=O)N2CCC(n3c(=O)[nH]c4ncccc43)CC2)CC[C@H]1c1cccc(F)c1F | CYP2D6 (human) |  | human liver microsomes |  |  | IC50 | > 40 µM |

For quick reference, copied from above:
| SMILES | target | test | test system | setting | scale | endpoint | result |
| --- | --- | --- | --- | --- | --- | --- | --- |
| CNCc1cn(S(=O)(=O)c2cccc(F)c2)c(-c2ccc(F)cc2F)c1OC | MATE2-K | transporter uptake |  |  |  | IC50 | 0.58 µM |
| Cc1ccc(C)c(OCCCC(C)(C)C(=O)O)c1 | OATP1B3 (SLCO1B3) OATP1B1 |  |  | literature geometric mean |  | IC50 | 37.6 µM |
